Experimental data gathered from unrelated publications.
Every numbered part comes from another study and shows a few of its results, in no order.
UniProt O15294, sequence (whole entry, looked up): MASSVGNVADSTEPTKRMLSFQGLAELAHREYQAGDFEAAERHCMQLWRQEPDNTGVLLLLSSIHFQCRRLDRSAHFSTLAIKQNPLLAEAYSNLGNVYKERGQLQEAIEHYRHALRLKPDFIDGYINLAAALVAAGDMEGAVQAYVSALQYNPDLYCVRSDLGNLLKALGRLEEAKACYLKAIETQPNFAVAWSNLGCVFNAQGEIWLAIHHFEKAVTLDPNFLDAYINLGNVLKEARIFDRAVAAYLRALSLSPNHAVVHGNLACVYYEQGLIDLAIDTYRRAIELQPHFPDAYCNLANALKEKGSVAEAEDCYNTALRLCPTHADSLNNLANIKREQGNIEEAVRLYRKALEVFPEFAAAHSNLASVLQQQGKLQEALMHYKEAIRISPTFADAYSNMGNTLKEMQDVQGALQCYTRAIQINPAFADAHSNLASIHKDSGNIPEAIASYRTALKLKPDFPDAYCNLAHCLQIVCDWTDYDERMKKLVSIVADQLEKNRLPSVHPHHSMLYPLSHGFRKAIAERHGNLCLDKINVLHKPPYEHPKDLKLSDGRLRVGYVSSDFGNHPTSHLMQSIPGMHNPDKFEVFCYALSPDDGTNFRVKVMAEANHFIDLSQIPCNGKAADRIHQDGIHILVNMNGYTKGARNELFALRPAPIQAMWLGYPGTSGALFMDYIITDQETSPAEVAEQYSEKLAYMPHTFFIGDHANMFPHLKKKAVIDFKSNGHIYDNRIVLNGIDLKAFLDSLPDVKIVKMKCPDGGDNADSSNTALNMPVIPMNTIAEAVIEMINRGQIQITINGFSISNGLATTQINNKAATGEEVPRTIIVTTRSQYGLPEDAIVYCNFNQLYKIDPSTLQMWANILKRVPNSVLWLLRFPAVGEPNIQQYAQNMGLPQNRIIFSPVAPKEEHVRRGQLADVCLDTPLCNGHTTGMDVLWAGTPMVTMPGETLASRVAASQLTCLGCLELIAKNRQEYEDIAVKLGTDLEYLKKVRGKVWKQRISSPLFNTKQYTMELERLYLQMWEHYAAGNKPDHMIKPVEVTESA

Set 1
Target: Histone acetyltransferase KAT6A, winged helix 2, GST fusion (KAT6A, Homo sapiens, UniProt Q92794, residues 85-181)
Technique: protein binding microarray
Form: double-stranded DNA, one strand shown
Matrix: in vitro
Concentration: not given
Notes: 8-mer, flanks averaged, mean of 2 arrays, mostly near background
Baseline: not given
Reading: higher = stronger binding
Construct (chain): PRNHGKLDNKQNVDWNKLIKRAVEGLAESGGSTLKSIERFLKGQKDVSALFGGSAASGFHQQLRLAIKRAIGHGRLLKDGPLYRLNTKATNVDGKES
The E-score of `AAGGCGGG` is reported as 0.0837.
`AAAGGATT` gave an E-score of -0.0691.
`GTATTCAA` has an E-score of 0.226.
`GATGCACA` has an E-score of 0.0542.
`AGCGCCCC` gave an E-score of 0.0621.
For `CACCGATC`, the E-score was -0.0788.
`AATGACAT` has an E-score of -0.0204.
For `CGTGGTTA`, the E-score was -0.241.

Set 2
Target: Interferon regulatory factor 7, full length, phosphomimetic (IRF7, Homo sapiens, UniProt Q92985, residues 1-503, S471D/S472D/S475D/S476D/S477D/S483D/S484D/S487D)
Technique: protein-binding microarray
Form: double-stranded DNA, one strand shown
Matrix: in vitro
Concentration: 2200 nM top
Notes: 60-bp whole probe
Added: salmon DNA 0.4 mg/ml
Baseline: random background probes
Reading: higher = stronger binding
All sequences stand within: GCCTAGCAC … GTCTTGATTCGCTTGACGCTGCTG
Residues (chain): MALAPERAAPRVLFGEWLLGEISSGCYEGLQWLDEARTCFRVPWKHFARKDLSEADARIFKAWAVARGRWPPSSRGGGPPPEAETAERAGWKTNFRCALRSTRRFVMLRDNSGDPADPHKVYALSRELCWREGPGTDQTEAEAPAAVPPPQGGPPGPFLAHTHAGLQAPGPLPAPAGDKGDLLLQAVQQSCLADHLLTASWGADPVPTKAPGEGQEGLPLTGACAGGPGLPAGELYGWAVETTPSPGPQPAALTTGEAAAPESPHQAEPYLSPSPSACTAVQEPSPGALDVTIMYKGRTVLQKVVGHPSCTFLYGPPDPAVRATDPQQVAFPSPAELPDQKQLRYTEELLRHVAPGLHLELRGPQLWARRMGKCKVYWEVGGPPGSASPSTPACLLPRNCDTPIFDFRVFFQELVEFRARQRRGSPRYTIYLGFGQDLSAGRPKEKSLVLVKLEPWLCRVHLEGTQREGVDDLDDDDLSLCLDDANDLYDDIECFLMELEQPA
For `GACGAACCGGGGTTTCGAGACGTGCTA`, “fitted relative affinity” read 1.12 z-score.
For `TTAGGTGTCGACACTGGGTTAGTGCTA`, “fitted relative affinity” read -0.0875 z-score.
For `GCAAACCCCATTCTCAGCCCGTGCTAG`, “fitted relative affinity” read 0.904 z-score.
Under “fitted relative affinity”, `GACGATTTCGGGTATGGAGACGTGCTA` is recorded as 2.63 z-score.
For `GACGGTCCCCTTCTCCTGACGTGCTAG`, “fitted relative affinity” read 0.493 z-score.
`GACGATCTCAGTTTAGAGACGTGCTAG` — result for “fitted relative affinity”: 0.189 z-score.
`TTAGGTATCCTTTTGCTTTAGTGCTAG` — result for “fitted relative affinity”: 1.72 z-score.
For `TTAGGGCTGCTACTGCTTTAGTGCTAG`, “fitted relative affinity” read -0.827 z-score.

Set 3
Target: Protein max, full length (MAX, Homo sapiens, UniProt P61244-2, residues 1-151)
Technique: protein-binding microarray
Form: double-stranded DNA, one strand shown
Matrix: in vitro
Concentration: not given
Notes: k-mer, scored over probes, only values ≥0.25
Reading: higher = stronger binding
The E-score of `TCCACGCA` is reported as 0.264.
For `ACGTGCCA`, the E-score was 0.448.
For `AGCGTGTC`, the E-score was 0.379.
`CTCGTGTC` gave an E-score of 0.42.
`GCACAAGC` has an E-score of 0.27.
`ACATGGTA` has an E-score of 0.339.
With `ATGCACAC` the E-score was 0.375.
For `CATGTTCG`, the E-score was 0.283.

Other studies, line by line
Under “log2 fold enrichment”, `VHRNSHHSEHHRDFE` is recorded as 2.62 (UDP-N-acetylglucosamine--peptide N-acetylglucosaminyltransferase 110 kDa subunit (OGT, Homo sapiens, UniProt O15294); phage display binding, phage display panning NGS; peptide; baseline: OGT-panned over input library).

Excerpt of the above (set 2):
For `TTAGGGCTGCTACTGCTTTAGTGCTAG`, “fitted relative affinity” read -0.827 z-score.
For `GCAAACCCCATTCTCAGCCCGTGCTAG`, “fitted relative affinity” read 0.904 z-score.
`TTAGGTATCCTTTTGCTTTAGTGCTAG` — result for “fitted relative affinity”: 1.72 z-score.
`GACGATCTCAGTTTAGAGACGTGCTAG` — result for “fitted relative affinity”: 0.189 z-score.
